Assay results of several laboratories.
Each numbered part is a random draw from the data of one study; scales do not carry over between parts.

Set 1
Target: Fragile X messenger ribonucleoprotein 1, C-terminal low-complexity region (Fmr1, Mus musculus, UniProt P35922)
Technique: RNA Bind-n-Seq
Molecule type: RNA
Matrix: in vitro
Tested at: 200 nM
Notes: whole 134-nt RNA, ends assumed
Together with: 150 mM LiCl
Relative to: input library
Reading: higher = stronger binding
All molecules: 7-deaza-guanosine replaces G
Constant ends, left off below: GGGAGUUCUACAGUCCGACGAUC … UGGAAUUCUCGGGUGUCAAGG
Sequence | log2 enrichment
GUCCUGUGCUACACAUCGUAUGUACCGAAUCGGGCCCCCGGGCCCCCGGGCCCCCGGGAAAGUAUUAUGUUACGCCGUUCGGAUCUGCAC | -2.81
UGGCCCUGGGGGCAUGCGGGGAGGAAGAGGUGGCCUCAUGGAUCGUGGUGGUCCCGGUGGAAUGUUCAGAGGUGGCCGUGGUGGAGACAG | -0.56
UCAAGUCCUGUGCUACACAUCGUAUGUACCGAAUCGGAAGGGAAGGGGAAGGGGAAAGUAUUAUGUUACGCCGUUCGGAUCUGCACUUCC | -0.508
CGCUAAAGAGGAGCACGGUGGACUGAUGUGAGCUUCUCUUCCUGCCCCUUCCUCCCUGAUGUCCACUCCCUUCACCUUCCUCACGCCCGU | 2.06
CCUCAAGUCCUGUGCUACACAUCGUAUGUACCGAAUCGGAAAGGAAAGGAGGAAAGUAUUAUGUUACGCCGUUCGGAUCUGCACUUCCAG | -0.584
CUGUGCUACACAUCGUAUGUACCGAAUCGGGGAAAGGGGUUUUUUUGGGGAAAAAAAGGGGAAAGUAUUAUGUUACGCCGUUCGGAUCUG | -0.325
UGGCCCUGGUGGCAUGCGGGGAGGAAGAGGUGGCCUCAUGGAUCGUGGUGGUCCCGGUGGAAUGUUCAGACGUGGCCGUGGUGGAGACAG | -0.557
UGGGAGGUGGAUUUUGUUUAUUUUUUUAGCUCAUUUCCAGGGGUCGGAAUUUUUUUUUAAUAUGUGUCAUGAAUAAAGUUGUUUUUGAAA | -1.24
UGGGAGGUGGAUUAUGUUUAUUUUUUUAGCUCAUUUCCAGGGGUGGGAAUUUUUUUUUAAUAUGUGUCAUGAAUAAAGUUGUUUUUGAAA | -0.857
UGGCCCUGGUGGCAUGCGGGGAGGAAGAGGUGGCCUCAUGGAUCGUGGUGGUCCCGAUGGAAUGUUCAGAGGUGGCCGUGGUGGAGACAG | -0.742
AAGUCCUGUGCUACACAUCGUAUGUACCGAAUCGGGAAAAAGGGAAAGGGAAAGGGAAAGUAUUAUGUUACGCCGUUCGGAUCUGCACUU | -0.292

Set 2
Target: Phosphate system positive regulatory protein PHO4, full length, GST-tagged (PHO4, Saccharomyces cerevisiae, UniProt P07270, residues 1-312)
Technique: competition protein-binding microarray
Molecule type: double-stranded DNA, one strand shown
Matrix: in vitro
Tested at: 2 µM
Notes: whole 60-bp probe, lowest competitor level
Together with: Cbf1 competitor, 0.05 µM
Reading: higher = stronger binding
Constant ends, left off below: … GTCTTGATTCGCTTGACGCTGCTG
Target sequence (chain): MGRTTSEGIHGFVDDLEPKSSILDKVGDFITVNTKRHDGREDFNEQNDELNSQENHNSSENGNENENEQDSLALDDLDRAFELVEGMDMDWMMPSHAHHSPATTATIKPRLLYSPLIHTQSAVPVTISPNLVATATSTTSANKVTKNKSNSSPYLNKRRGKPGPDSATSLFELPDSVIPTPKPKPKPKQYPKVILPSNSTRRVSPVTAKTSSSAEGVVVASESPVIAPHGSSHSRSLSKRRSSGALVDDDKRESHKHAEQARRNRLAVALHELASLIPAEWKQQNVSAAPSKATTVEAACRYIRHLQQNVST
Sequence | fluorescence intensity [a.u.]
CTTTCCCGATCTTTTCACGTGCTATTAGCACATTTG | 16000
CCGATTTTGTCCTTTAGCGTGACTCGGATTATACGC | 4060
AGCCCCGCGGGATCGCACGTATGAAGCCTGGATGAA | 5330
CATGATTTCCTATTGTGCGTGCCGAATTTACGGACG | 9350
TCTAAATTGGAGCACAGCATGACAGTTGCCACCTCT | 5510
CATACCCAACCTTGAGCCGTGGGTGAAGATATTTGT | 5260
ATCTTATTGATGTATTTCATATTATTGTTTTTTTTA | 3990
CTAACGAAGGTTTGCCCTGTGGGTGACAAGCCAAGT | 4390
TAGAGAGTTGTCCATCACGTTGGACAGGTTGTACTT | 9060
TGAACGCCATTACTAATGCATTTAAAAACTGCTTTT | 3180
CTTCTGTAAATTTTTCACGTGTGTTGACGCGCCCCG | 10200
AAATTACTAAGTTGTCACTGAACTTACCCCGTATGA | 2550
GTCTTGTCTCATTGAGTGGTGGGTGTCCCCACTTCA | 4990
TGTGATTCCTCGGGCCACGTGAAATGAATCAGCCCT | 13900
CTAACGAAGGTTTGTGGTGTGGGTGACAAGCCAAGT | 5020
TATGCTTTTCTTTTGAACGTGCAAAGCGCAGAGGCA | 10700
GGGTTTCCTTCTGGTATGATAAATGTGAGCCAAATG | 4860
AAAGCGGTAATTTGTCACCACACTTCACATATCTAT | 4970
AAGATATATGAATAGGACGTGTCGGTAGAACTAGTA | 5760
TGAAGAACAGAGCTGCTCGTGACGGAAGAGCTCAAA | 5430
CTTTCCCGATCTTGGTGGGTGGGTGTAGCACATTTG | 5030
CATGCTTTTGGGTTACCACATTCAACAATAACTCGA | 5080
TGCGCAACAACTTGCCACGTGGGTGTATGTCTAGAA | 18200
CGGGGTTAAGTTTGTTGAGTGGGTGGCTTGCAGCAG | 5120
CTAACGAAGGTTTGCGGCGTGGGTGACAAGCCAAGT | 6900

Set 3
Target: RNA binding protein fox-1 homolog 2, RRM domain, GST-SBP tag (RBFOX2, Homo sapiens, UniProt O43251-10, residues 100-194)
Technique: RNA Bind-n-Seq
Molecule type: RNA
Matrix: in vitro
Tested at: 365 nM
Notes: natural RNA segment, single round, ends assumed
Relative to: no-protein control
Reading: higher = stronger binding
Constant ends, left off below: GGGAGUUCUACAGUCCGACGAUC … UGGAAUUCUCGGGUGCCAA
Target sequence (chain): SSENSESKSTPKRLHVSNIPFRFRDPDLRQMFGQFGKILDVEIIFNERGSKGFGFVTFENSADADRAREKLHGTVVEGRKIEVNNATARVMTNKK
Sequence | RBNS enrichment (R)
ACUGUAAACAUACGACCUUUGUUUUUGUCUUAUGUUGGGGUAAAGGAAAGCAGGAAGGGGAAUUUUUAUCCUCCUCCCUUCCGUAAAGUGCUGGGAUAUUUUGAAUCCCC | 0.277
AAGCCAUAGCCAGAAAGGACAGAAUCUCUCCCCCACUCCCUUGCCCCAUAACCAAACAUAAGCUAGCUAGUCUUGUCUAAUAGAUGGGAUUUACUAUAGGUGAAGAUAGC | 0.481
UGUGUAAAGUGCUAGGAAAUUUCCAAUUUGAAAUUUUGCUUUUUCUGGCAUUGGCAAAAAACCAGUAGAAGUGAAUUGUUAGCUGAUGGCCAGGGGGUGUGAUAACAAAU | 1.31
CACCACCUGGGGACCCCCUUGUUGUGUCCAGGACUCCCCCUGUGUCAGUGCUCUGCUCUCACCCUGCCCAAGACUCACCUCCCUUCCCCUCUGCAGGCCGACGGCAGGAG | 0.668
CAUUGUCUAAGCACCGGCAAAUUAAAAUGUCGAGAAUCACUUCAGUCAAAAACCUUUAUAUUCUGUUCUUAAUAAUGUUUGUGCCAACCUAUAUCCCAUGUAAGGGAUCU | 0.692
GUUAGGUUGAACUUGGGAAAGCAAGCCCAAGUUCAACCUAACUCCUGCUGUAAAAUGGAGAGAACUGUAGCAAAUGAACAGCCCUUUAAGAUUACCUAGCUGCCUCUCUG | 0.25
UUUUCUUGAGCUAAAGACAGGCUUUUUCCACCGGCAUCAUCACUGCUAUCAUCAUUAACAGCGUAAUUAUACAAGCAUAUUUAAUGCUGAGUUUAAUUUAAUAUGUAAUA | 0.279
UUGAGGAAGAAUGCCUGACUCAAAACUGUGACUCUAGAGAACAAUGCACAGCCCUGAGACCCCACUGGACUGCUGCUCCUUAGCUGGUCUAAAUAGAGCUUCUCUGUCCG | 0.226
UGUCCUUCAACCAUAUCCUGCAACUUCUCAAACUGUACUAAAUUGAUAUUUCUUGAAGUCUAACUCUGUGCUAACAGAUCUUCAUUUUAAAUAGAAUACGGUUUUAAUUU | 0.322
GAGGUUAGACUGACAGAAGGUGUGCAGCCUGAUUUACAACCAAACCCUGAACCCUUUUGAAGAACAAUAAAACAUAUUUUACAUGCUUUUUGUGAAUUUCUUCCCCACUC | 0.318
CAGCCCCAGCCCGGGUCCAUUGCCCACAUUCUCUGUCUCCUUCUCGUCGGUCUACCCCACUACCUCCAGGGUUUUGCUUUGUCCUUUUGUGACCGUUAGUCUCUAAGCUU | 0.365
UUCUAUUAAAGAUUCUAGUGAAACAUAAAGUUGUAUUGUGUUCACCUUAAAACUUAUUGGAUUAUGAAUGUUAUCAGAGUACUGAAUUGUAUCAAUUUGUUUGCAGUUAA | 0.989

Set 4
Target: Histone acetyltransferase KAT6A, both winged helices, GST fusion (KAT6A, Homo sapiens, UniProt Q92794, residues 1-181)
Technique: protein binding microarray
Molecule type: double-stranded DNA, one strand shown
Matrix: in vitro
Tested at: not given
Notes: 8-mer, flanks averaged, mean of 2 arrays, mostly near background
Relative to: not given
Reading: higher = stronger binding
Construct (chain): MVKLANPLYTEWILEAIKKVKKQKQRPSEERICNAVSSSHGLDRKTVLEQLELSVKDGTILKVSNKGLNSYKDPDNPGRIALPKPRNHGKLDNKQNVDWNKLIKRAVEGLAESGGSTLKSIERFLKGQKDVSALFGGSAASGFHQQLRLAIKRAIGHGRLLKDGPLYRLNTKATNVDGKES
Sequence | E-score
CGGCATCC | 0.228
CGCCATCA | 0.0549
GGACAAAA | 0.0629
CATCTGCG | 0.0544
ATATAGGG | -0.0272
ACTAGATG | -0.148
CTCCGCGC | 0.333
GTGTCACA | 0.0973
AGCAAGAG | -0.3
CACACTGG | -0.234
ATCCGGGC | 0.227
AAACCCAA | -0.244
CGCCGCCG | 0.365
ATTTTACG | 0.0472
ATCGGCCG | 0.27
GAATCCTC | -0.212
AGGTGACA | -0.0754
CTAAGAAA | -0.0415
AGATTAAA | -0.00282
CAGCGCAC | 0.129
CGAGGGCC | 0.00911
ACCAACAT | -0.000685
GCGATCTA | 0.161
CTAGCCGA | 0.0691
AAGGAACG | 0.159

Repeated from above (set 2):
Sequence | fluorescence intensity [a.u.]
GGGTTTCCTTCTGGTATGATAAATGTGAGCCAAATG | 4860
CTAACGAAGGTTTGCGGCGTGGGTGACAAGCCAAGT | 6900
CCGATTTTGTCCTTTAGCGTGACTCGGATTATACGC | 4060
TGAAGAACAGAGCTGCTCGTGACGGAAGAGCTCAAA | 5430
TGAACGCCATTACTAATGCATTTAAAAACTGCTTTT | 3180
CTTTCCCGATCTTTTCACGTGCTATTAGCACATTTG | 16000
CTAACGAAGGTTTGTGGTGTGGGTGACAAGCCAAGT | 5020
CATGCTTTTGGGTTACCACATTCAACAATAACTCGA | 5080
ATCTTATTGATGTATTTCATATTATTGTTTTTTTTA | 3990
AAATTACTAAGTTGTCACTGAACTTACCCCGTATGA | 2550
